Results gathered from unrelated publications.
Compare with care: the assays were run in different laboratories. Several values in a cell are separate wells, animals, samples, runs or records. Numbers after ± are the reported error. Converted amounts (≈) assume the structure as drawn.

| SMILES | target | assay | system | setting | scale | quantity | value |
| --- | --- | --- | --- | --- | --- | --- | --- |
| CCCCC/C=C/C(=O)CCc1ccc(O)c(OC)c1 | mAb 5-D8 | antibody binding, indirect competitive ELISA | – | with: coating antigen hapten 5-OVA | – | IC50 | 311 ng/mL (≈ 1.12 µM) |
| COc1cc(/C=C/C(=O)c2ccc3ccccc3c2)ccc1OCc1ccccc1 | ABCG2 | cell growth, chemosensitizer, MTT | HEK293 transfected with ABCG2 | 1 µM, 72 h | – | GI50 of mitoxantrone | 16.4 ± 3.1 nM |
| Cc1cc(/C=C/c2ccc(O)c(O)c2)[nH]n1 | glutathione reductase | enzyme activity | MCF7 | 25 µM, 48 h | – | increase | 52% |
| COc1cc(CCC(C)=O)ccc1O | mAb 3-LD3 | antibody binding, indirect competitive ELISA | – | with: coating antigen hapten 2-OVA | – | IC50 | > 4000 ng/mL |
| CCOC(=O)CCc1ccc(N)cc1 | HBV core protein Cp149 dimer | solution NMR | – | 4 molar equivalents, pH 7.5, 295 K, average over eight residues | baseline: apo Cp149 dimer | average chemical shift perturbation | < 0.029 ppm |
| CN1CCCNC(=O)c2cccc(c2)C(=O)NCCCN(C)CCCNc2cccc3c2C(=O)c2cccc(c2C3=O)NCCC1 | telomeric G-quadruplex DNA | circular dichroism | – | 4.5 µM, 100 mM K+ | – | melting temperature increase | 8.8 °C |
| O=C(Nc1ccc(S(=O)(=O)Nc2nccs2)cc1)c1cc(-c2ccccc2)nc2ccccc12 | ChREBP human | reporter gene, inhibitor, LPK promoter luciferase | HepG2 | 3 µM, with: high glucose | – | inhibition | ~30% |
| Cn1cnnc1Sc1c2c(c(C#N)c3nc4ccccc4n13)CCCC2 | hydrogen peroxide | Amplex Red | – | 100 µM | – | inhibition | no inhibition |
| Cc1ccc2c(c1)nc(/C=C/c1cccc3cccnc13)n2-c1cccc(OCCCN2CCN(C)CC2)c1 | PDE10A Q726A mutant | enzyme activity, inhibitor | – | – | baseline: mutant over wild type | potency loss | 30 fold |
| CC(C)(C)OCc1ccc(CO)cc1 | HBV core protein Cp149 dimer | solution NMR | – | 4 molar equivalents, pH 7.5, 295 K, average over eight residues | baseline: apo Cp149 dimer | average chemical shift perturbation | 0.048 ppm |
| CCCCCCCCCCCCCCCC(=O)N[C@@H](CCC(=O)NCCCC[C@H](NC(=O)[C@H](CC(=O)O)NC(=O)[C@H](CO)NC(=O)[C@@H](NC(=O)[C@H](Cc1ccccc1)NC(=O)[C@@H](NC(=O)CNC(=O)[C@H](CCC(N)=O)NC(=O)[C@H](CO)NC(=O)[C@@H](N)Cc1c[nH]cn1)[C@@H](C)O)[C@@H](C)O)C(=O)N[C@@H](CO)C(=O)N[C@@H](CCC(=O)O)C(=O)N[C@@H](Cc1ccc(O)cc1)C(=O)N[C@@H](CC(C)C)C(=O)N[C@@H](CC(=O)O)C(=O)N[C@@H](CO)C(=O)N[C@@H](CCC(=O)O)C(=O)N[C@@H](CCCNC(=N)N)C(=O)N[C@@H](C)C(=O)N[C@@H](CCCNC(=N)N)C(=O)N[C@@H](CC(=O)O)C(=O)N[C@@H](Cc1ccccc1)C(=O)N[C@H](C(=O)N[C@@H](C)C(=O)N[C@@H](Cc1c[nH]c2ccccc12)C(=O)N[C@@H](CC(C)C)C(=O)N[C@@H](CCC(=O)O)C(=O)N[C@@H](C)C(=O)NCC(=O)NCC(=O)O)C(C)C)C(=O)O | cynomolgus monkey GLP-1 receptor | cAMP accumulation, agonist | CHO cells | with: 4.2% monkey albumin | – | EC50 | 5.2 ± 0.78 pM |
| O=c1c2ccccc2on1-c1ccccc1 | 11 HDAC isoforms | – | – | up to 10 µM | – | inhibition | no inhibition |
| Cc1c(-c2cccc(C3=NCCN3)c2)oc(-c2cccc(C3=NCCN3)c2)c1C | HSP90A promoter G-quadruplex DNA | G-quadruplex stabilisation, FRET melting | – | 1 µM | – | ΔTm | 27.7 °C |
| O=C(Cc1ccc2ccccc2c1)N[C@H](Cc1ccccc1)C(=O)N[C@H](Cc1ccccc1)C(=O)N[C@H](Cc1ccc(OP(=O)(O)O)cc1)C(=O)N[C@H](Cc1ccc(OP(=O)(O)O)cc1)C(=O)O | alkaline phosphatase | substrate | – | 0.5 wt %, with: ALP 0.02 U/mL | – | time to near-complete dephosphorylation | ≤ 24 h |
| O=C(O)c1ccccc1-c1c2ccc(=O)cc-2oc2cc(O)ccc12 | PCNA ubiquitination cascade (human) | Alpha | – | concentration not given | – | PCNA ubiquitination | inactive |
| CCOc1ccc(-c2nc3cc(-c4nc5cc(N6CCN(C)CC6)ccc5[nH]4)ccc3[nH]2)cc1 | HIV-1 nucleocapsid protein-RNA NC•SL4 complex | ESI-FTMS | – | 0.35 to 17.5 µM, added to preformed complex | – | NC-RNA complex dissociation | no effect |
| OB1c2sccc2C=NN1Cc1ccccc1 | human pancreatic trypsin | enzyme activity, inhibitor | – | 100 µM | – | inhibition | inactive |
| CC(=O)c1cnc(N)nc1N1CC[C@H]1c1nn2ccc(Cl)c2c(=O)n1-c1ccccc1 | PI3K beta | KiNativ | monkey white blood cell lysate | 1 µM | – | binding | 70% |
| NC(=O)C1CCNC(=O)C(CCCNC(=O)c2cnccn2)NC(=O)C(CC2CCCCC2)NC(=O)C(CC=Cc2ccccc2)NC(=O)C=CC(=O)N1 (centres unmarked) | AMPK | binding, DNA-templated library selection | – | one selection round | – | enrichment factor | 0.88 |
| CN1CCCNC(=O)CCC(=O)NCCCN(C)CCCNc2cccc3c2C(=O)c2cccc(c2C3=O)NCCC1 | telomeric G-quadruplex DNA | circular dichroism | – | 4.5 µM, 100 mM K+ | – | melting temperature increase | 2.8 °C |
| NC(=O)C1CCNC(=O)C(Cc2ccc([N+](=O)[O-])cc2)NC(=O)C(Cc2ccco2)NC(=O)C(CC2CC2)NC(=O)C=CC(=O)N1 (centres unmarked) | AMPK | binding, DNA-templated library selection | – | one selection round | – | enrichment factor | 1.4 |
| CCCCC(=O)N(C)c1ccc(O)cc1 | HBV core protein Cp149 dimer | solution NMR | – | 4 molar equivalents, pH 7.5, 295 K, average over eight residues | baseline: apo Cp149 dimer | average chemical shift perturbation | < 0.029 ppm |
| NC(=O)C1CCNC(=O)C(CCCNC(=O)c2cnccn2)NC(=O)C(CC2CCCCC2)NC(=O)C(CC2CC2)NC(=O)C=CC(=O)N1 (centres unmarked) | AMPK | binding, DNA-templated library selection | – | one selection round | – | enrichment factor | 1.2 |
| CC[C@H](C)[C@H](NC(=O)[C@H](CC(C)C)NC(=O)[C@H](CCCCN)NC(=O)[C@@H](N)CCCCN)C(=O)N[C@H](C(=O)N[C@@H](Cc1ccccc1)C(=O)N[C@H](C(=O)N1CCC[C@H]1C(=O)N[C@@H](CCCCN)C(=O)N[C@@H](CCCCN)C(=O)N[C@H](C(=O)N[C@@H](CCCNC(=N)N)C(=O)N[C@@H](CCC(=O)O)C(=O)N[C@@H](CCCCN)C(=O)N[C@@H](CCCCN)C(=O)N[C@@H](CCCCN)C(=O)N[C@@H](CCC(=O)O)C(=O)N[C@@H](CS)C(=O)N[C@@H](CC(C)C)C(=O)N[C@H](C(=O)O)C(C)C)[C@@H](C)O)[C@@H](C)CC)[C@@H](C)O | voltage-gated sodium channel, mouse | resurgent current, blocker | mouse CA3 neurons | -10 mV, kinetic model | baseline: wild-type peptide | affinity decrease | 10 fold |
| C[C@H](CN(C)Cc1ccccc1)NC(=O)c1ccc(-c2noc(C(F)(F)[18F])n2)cc1 | class IIa HDACs | microPET self-blocking | mouse, brain | 1.0 mg/kg | baseline: baseline | reduction of brain uptake | ~47% and 47% |
| Cc1sc2ncn(CC(=O)N3CCCC3)c(=O)c2c1-c1ccc(Cl)cc1 | AMPA receptor | receptor response | – | 100 µM | baseline: control | response | 88 ± 6.4% |

For quick reference, copied from above:
| SMILES | target | assay | system | setting | scale | quantity | value |
| --- | --- | --- | --- | --- | --- | --- | --- |
| CC(=O)c1cnc(N)nc1N1CC[C@H]1c1nn2ccc(Cl)c2c(=O)n1-c1ccccc1 | PI3K beta | KiNativ | monkey white blood cell lysate | 1 µM | – | binding | 70% |
| NC(=O)C1CCNC(=O)C(CCCNC(=O)c2cnccn2)NC(=O)C(CC2CCCCC2)NC(=O)C(CC=Cc2ccccc2)NC(=O)C=CC(=O)N1 (centres unmarked) | AMPK | binding, DNA-templated library selection | – | one selection round | – | enrichment factor | 0.88 |
| CN1CCCNC(=O)CCC(=O)NCCCN(C)CCCNc2cccc3c2C(=O)c2cccc(c2C3=O)NCCC1 | telomeric G-quadruplex DNA | circular dichroism | – | 4.5 µM, 100 mM K+ | – | melting temperature increase | 2.8 °C |
